Measurements from different studies.
Numbered parts are unrelated; each lists some results of a single study.
Chain of UniProt P35590 (whole entry, looked up): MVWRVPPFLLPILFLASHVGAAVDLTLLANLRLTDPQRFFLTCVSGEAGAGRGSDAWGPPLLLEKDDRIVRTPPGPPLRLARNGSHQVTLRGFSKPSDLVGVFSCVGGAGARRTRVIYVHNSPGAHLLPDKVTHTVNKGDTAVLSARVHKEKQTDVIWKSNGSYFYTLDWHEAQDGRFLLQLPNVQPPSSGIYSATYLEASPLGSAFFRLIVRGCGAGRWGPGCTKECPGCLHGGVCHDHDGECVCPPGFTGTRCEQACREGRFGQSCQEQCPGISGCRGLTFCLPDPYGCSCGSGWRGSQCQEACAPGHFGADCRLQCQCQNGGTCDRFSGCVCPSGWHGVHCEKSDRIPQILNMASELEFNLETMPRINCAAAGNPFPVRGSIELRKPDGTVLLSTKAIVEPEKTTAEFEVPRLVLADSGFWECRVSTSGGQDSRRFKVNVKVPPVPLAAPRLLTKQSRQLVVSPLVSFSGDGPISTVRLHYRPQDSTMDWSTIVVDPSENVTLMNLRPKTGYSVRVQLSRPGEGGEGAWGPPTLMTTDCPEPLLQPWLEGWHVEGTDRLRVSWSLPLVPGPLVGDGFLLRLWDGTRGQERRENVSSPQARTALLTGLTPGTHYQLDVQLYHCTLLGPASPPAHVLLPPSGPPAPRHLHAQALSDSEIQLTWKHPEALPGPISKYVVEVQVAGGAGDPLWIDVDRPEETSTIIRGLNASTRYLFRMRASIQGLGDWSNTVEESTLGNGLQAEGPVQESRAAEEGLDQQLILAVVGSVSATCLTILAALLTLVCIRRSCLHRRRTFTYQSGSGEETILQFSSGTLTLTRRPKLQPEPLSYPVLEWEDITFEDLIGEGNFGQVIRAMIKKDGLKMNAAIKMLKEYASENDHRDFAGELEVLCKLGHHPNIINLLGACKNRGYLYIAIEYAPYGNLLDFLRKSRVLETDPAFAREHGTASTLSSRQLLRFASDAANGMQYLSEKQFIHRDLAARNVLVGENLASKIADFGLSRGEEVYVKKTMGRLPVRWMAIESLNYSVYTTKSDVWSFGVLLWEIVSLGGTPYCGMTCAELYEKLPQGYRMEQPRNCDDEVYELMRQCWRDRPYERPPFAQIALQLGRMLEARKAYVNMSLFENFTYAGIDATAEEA

Series 1
Target: DNA polymerase theta, ATPase domain (POLQ, Homo sapiens, UniProt O75417)
Chain of UniProt O75417 (whole entry, unmodified, looked up): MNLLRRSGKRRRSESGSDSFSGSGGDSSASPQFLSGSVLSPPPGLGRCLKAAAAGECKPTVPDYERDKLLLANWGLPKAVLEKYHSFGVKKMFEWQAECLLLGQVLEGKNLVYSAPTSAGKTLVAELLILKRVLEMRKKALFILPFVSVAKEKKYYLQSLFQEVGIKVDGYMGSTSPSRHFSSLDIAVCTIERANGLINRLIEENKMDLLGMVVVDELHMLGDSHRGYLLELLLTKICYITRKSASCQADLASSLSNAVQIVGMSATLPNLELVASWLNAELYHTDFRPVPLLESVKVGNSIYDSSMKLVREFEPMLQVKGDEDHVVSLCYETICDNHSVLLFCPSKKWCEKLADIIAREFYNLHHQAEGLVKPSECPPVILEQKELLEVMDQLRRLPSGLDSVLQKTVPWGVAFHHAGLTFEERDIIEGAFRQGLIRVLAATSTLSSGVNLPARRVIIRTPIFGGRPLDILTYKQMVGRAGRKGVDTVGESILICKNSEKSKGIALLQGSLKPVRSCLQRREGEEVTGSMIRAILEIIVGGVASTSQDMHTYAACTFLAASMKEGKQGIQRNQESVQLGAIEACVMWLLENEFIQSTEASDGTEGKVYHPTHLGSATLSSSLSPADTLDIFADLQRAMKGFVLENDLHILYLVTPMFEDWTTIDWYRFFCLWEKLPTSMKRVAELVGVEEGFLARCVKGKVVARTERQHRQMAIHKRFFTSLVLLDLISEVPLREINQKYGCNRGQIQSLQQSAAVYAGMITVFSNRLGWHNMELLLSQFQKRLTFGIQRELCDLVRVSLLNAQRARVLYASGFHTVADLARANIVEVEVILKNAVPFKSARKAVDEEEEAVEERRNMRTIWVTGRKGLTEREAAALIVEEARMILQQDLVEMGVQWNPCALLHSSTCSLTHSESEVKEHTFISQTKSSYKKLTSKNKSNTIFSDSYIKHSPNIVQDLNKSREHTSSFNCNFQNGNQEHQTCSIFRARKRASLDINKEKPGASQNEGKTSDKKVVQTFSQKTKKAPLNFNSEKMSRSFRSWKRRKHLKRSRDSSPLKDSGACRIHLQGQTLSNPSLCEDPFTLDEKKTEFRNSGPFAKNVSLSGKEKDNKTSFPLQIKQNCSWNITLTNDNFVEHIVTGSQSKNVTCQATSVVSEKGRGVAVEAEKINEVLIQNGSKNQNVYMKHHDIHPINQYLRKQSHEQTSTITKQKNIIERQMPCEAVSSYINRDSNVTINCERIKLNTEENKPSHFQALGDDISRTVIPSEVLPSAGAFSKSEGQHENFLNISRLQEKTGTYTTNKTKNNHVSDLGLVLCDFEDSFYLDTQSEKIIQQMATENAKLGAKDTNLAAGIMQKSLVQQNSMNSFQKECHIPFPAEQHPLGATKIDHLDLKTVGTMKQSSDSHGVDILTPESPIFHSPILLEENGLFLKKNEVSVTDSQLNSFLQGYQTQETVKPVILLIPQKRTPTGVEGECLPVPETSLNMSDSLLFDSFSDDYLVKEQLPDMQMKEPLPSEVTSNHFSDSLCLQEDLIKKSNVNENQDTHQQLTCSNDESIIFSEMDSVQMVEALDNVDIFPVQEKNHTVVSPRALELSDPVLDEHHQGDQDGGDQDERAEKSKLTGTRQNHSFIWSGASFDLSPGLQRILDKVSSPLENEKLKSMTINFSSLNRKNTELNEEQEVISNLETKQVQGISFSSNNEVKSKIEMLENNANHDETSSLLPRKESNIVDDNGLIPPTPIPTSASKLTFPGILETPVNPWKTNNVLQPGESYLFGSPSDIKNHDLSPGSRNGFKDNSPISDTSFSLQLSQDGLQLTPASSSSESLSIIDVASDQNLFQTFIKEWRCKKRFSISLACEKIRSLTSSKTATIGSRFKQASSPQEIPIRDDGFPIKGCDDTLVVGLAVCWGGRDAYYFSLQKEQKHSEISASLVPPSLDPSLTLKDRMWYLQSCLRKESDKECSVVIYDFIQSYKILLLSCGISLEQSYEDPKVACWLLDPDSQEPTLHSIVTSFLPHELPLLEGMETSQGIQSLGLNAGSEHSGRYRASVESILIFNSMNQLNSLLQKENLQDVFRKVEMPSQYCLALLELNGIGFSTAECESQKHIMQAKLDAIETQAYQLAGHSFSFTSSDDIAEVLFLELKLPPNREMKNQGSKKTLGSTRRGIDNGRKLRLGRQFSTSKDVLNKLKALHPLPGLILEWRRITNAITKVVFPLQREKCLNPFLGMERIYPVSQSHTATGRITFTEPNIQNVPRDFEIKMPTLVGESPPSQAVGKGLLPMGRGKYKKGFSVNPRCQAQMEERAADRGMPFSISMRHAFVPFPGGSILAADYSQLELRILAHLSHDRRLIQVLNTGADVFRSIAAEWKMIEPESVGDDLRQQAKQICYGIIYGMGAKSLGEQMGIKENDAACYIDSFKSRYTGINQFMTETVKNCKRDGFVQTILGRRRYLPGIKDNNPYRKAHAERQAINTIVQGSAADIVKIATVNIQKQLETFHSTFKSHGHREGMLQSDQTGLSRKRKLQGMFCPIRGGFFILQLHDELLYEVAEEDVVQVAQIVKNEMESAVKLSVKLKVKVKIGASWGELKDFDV
Effect on: enzyme activity
Action: inhibitor
Tested at: 77 µM
Relative to: untreated
| Compound | remaining activity [%] |
| --- | --- |
| CN(C)CC/C=C1/c2ccccc2COc2ccc(CC(=O)O)cc21 | 98.1 |
| CN1CCN(CCCN2c3ccccc3Sc3ccc(S(=O)(=O)N(C)C)cc32)CC1 | 103 |
| COc1ccc(Cn2ccc3ccc(C(=O)NO)cc32)cc1 | 103 |
| COC(=O)c1c(C)[nH]c(C)c1C(=O)c1ccccc1Cc1ccccc1 | 105 |
| c1ccc2c(Oc3nc(Nc4ccc(N5CCOCC5)cc4)c4ncn(C5CCCCC5)c4n3)cccc2c1 | 101 |
| O=C1NC(=O)/C(=C/c2ccc3nccc(-c4ccncc4)c3c2)S1 | 89.2 |
| Nc1nccs1 | 97.1 |

Series 2
Target: Calcium/calmodulin-dependent protein kinase type II subunit alpha (CAMK2A, Homo sapiens, UniProt Q9UQM7)
Chain of UniProt Q9UQM7 (whole entry, looked up): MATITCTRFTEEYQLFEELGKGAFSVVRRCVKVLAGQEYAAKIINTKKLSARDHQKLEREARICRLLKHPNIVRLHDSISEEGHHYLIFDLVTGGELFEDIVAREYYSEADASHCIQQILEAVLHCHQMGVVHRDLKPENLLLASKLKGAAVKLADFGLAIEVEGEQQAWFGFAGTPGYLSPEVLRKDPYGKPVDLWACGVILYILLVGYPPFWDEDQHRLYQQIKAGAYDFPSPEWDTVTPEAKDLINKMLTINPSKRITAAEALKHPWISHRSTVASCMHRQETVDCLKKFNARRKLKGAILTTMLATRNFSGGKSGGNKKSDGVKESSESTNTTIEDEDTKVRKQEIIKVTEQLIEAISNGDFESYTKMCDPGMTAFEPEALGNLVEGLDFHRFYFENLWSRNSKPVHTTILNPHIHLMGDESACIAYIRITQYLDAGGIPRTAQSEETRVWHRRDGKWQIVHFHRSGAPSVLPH
Effect on: enzyme activity
Action: inhibitor
Tested at: 10 µM
| SMILES | inhibition [%] |
| --- | --- |
| C=C1C(=O)O[C@@H]2/C=C(/C)[C@@H](OC(C)=O)C/C=C(/C=O)C[C@@H](OC(=O)/C(C)=C/CO)[C@@H]12 | 0 |
| CCC(C)(C)c1ccc(CC(C)CN2C[C@@H](C)O[C@@H](C)C2)cc1 (some centres unmarked) | -2 |
| CCc1c(Cl)c(O)c(Cl)c(O)c1C(=O)O[C@H]1[C@H](O)[C@H](OC)[C@H](OC/C2=C\C=C\C[C@H](O)/C(C)=C/[C@H](CC)[C@@H](O[C@@H]3OC(C)(C)[C@@H](OC(=O)C(C)C)[C@H](O)[C@@H]3O)/C(C)=C/C(C)=C/C[C@@H]([C@@H](C)O)OC2=O)O[C@@H]1C | -11 |
| CCC1(c2ccccc2)C(=O)NCNC1=O | 0 |
| CCCC(=O)O[C@]1(C(=O)CCl)[C@@H](C)C[C@H]2[C@@H]3CCC4=CC(=O)C=C[C@]4(C)[C@@]3(F)C(=O)C[C@@]21C | -13 |
| O=c1cc(-c2ccc(O)cc2)oc2c([C@@H]3O[C@H](CO)[C@@H](O)[C@H](O)[C@H]3O)c(O)cc(O)c12 | 0 |
| C/C1=C\C(=O)c2c(C)coc2C/C(C)=C/CC1 | 13 |
| CON(C)Cc1ccc(O)c2c1C[C@H]1C[C@H]3[C@H](N(C)C)C(O)=C(C(N)=O)C(=O)[C@@]3(O)C(O)=C1C2=O | -2 |

Series 3
SMILES: CO[C@H]1CC[C@H](CNc2ccc(S(=O)(=O)NC(=O)c3ccc(N4CCN(CC5=C(c6ccc(Cl)cc6)CC(C)(C)CC5)CC4)cc3Oc3cnc4[nH]ccc4c3)cc2[N+](=O)[O-])CC1
Effect on: cell-free assay
Technique: competition with immobilised ligand
Tested at: 1 µM
| target | remaining binding [%] |
| --- | --- |
| Mitogen-activated protein kinase kinase kinase 10 (MAP3K10, Homo sapiens, UniProt Q02779) | 89 |
| Cyclin-dependent kinase 4, with cyclin D1 (CDK4, Homo sapiens, UniProt P11802) | 100 |
| Atypical kinase COQ8B, mitochondrial (COQ8B, Homo sapiens, UniProt Q96D53) | 100 |
| Cyclin-dependent kinase 3 (CDK3, Homo sapiens, UniProt Q00526) | 100 |
| Mitogen-activated protein kinase 15 (MAPK15, Homo sapiens, UniProt Q8TD08) | 85 |
| Mitogen-activated protein kinase kinase kinase 13 (MAP3K13, Homo sapiens, UniProt O43283) | 89 |
| Tyrosine-protein kinase Lck (LCK, Homo sapiens, UniProt P06239) | 73 |
| Tyrosine-protein kinase JAK2, JH1 (JAK2, Homo sapiens, UniProt O60674) | 89 |
| Receptor tyrosine-protein kinase erbB-2 (ERBB2, Homo sapiens, UniProt P04626) | 54 |
| Dual specificity protein kinase CLK3 (CLK3, Homo sapiens, UniProt P49761) | 90 |
| Interleukin-1 receptor-associated kinase 4 (IRAK4, Homo sapiens, UniProt Q9NWZ3) | 83 |
| Tyrosine-protein kinase receptor UFO (AXL, Homo sapiens, UniProt P30530) | 94 |
| Tyrosine-protein kinase receptor Tie-1 (TIE1, Homo sapiens, UniProt P35590) | 100 |
| Serine/threonine-protein kinase Nek1 (NEK1, Homo sapiens, UniProt Q96PY6) | 77 |
| Ephrin type-A receptor 3 (EPHA3, Homo sapiens, UniProt P29320) | 90 |

Series 4
Target: High affinity nerve growth factor receptor (NTRK1, Homo sapiens, UniProt P04629)
Chain of UniProt P04629 (whole entry, looked up): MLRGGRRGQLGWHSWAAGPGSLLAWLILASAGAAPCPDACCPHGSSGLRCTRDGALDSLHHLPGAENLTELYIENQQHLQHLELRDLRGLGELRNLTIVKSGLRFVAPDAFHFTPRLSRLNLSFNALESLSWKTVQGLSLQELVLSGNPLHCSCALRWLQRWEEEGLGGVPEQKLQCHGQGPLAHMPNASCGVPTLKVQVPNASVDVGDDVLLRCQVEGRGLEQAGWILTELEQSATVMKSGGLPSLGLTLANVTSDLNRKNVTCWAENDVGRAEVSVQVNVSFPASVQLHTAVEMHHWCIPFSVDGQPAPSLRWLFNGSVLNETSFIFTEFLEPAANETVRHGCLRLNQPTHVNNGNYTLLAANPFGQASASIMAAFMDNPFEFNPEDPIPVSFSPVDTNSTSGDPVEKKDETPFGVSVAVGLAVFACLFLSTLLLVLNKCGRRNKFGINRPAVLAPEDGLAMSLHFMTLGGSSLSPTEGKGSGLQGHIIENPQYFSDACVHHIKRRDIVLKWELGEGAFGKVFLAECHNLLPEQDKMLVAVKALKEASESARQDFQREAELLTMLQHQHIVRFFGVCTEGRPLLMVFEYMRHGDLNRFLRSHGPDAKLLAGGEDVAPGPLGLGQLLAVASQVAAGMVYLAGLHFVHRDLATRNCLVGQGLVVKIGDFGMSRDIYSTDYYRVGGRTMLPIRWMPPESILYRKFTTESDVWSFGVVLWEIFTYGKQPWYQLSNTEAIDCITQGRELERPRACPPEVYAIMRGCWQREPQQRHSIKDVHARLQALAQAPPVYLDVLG
Effect on: enzyme activity
Action: inhibitor
Tested at: 0.5 µM
Relative to: control
| Structure (SMILES) | remaining activity |
| --- | --- |
| CC(C)n1cnc2c(Nc3cccc(Cl)c3)nc(NCCO)nc21 | 98.2% |
| COc1cc2c(Nc3ccc(Br)cc3F)ncnc2cc1OCC1CCN(C)CC1 | 104% |
| O=C(O)/C=C/c1cc(Br)c(Br)c(Br)c1Br | 91.1% |
| NC(=O)c1ccc(-c2nc(-c3ccc4c(c3)OCCO4)c(-c3ccccn3)[nH]2)cc1 | 90.7% |
| CC(C)(C)c1nc2c3cc[nH]c(=O)c3c3cc(F)ccc3c2[nH]1 | 48.7% |
| c1cc(-c2cnn3cc(-c4ccc(OCCN5CCCCC5)cc4)cnc23)ccn1 | 105% |
| C[C@@H](N)[C@H]1CC[C@H](C(=O)Nc2ccncc2)CC1 | 101% |
| O=C1NC(=O)/C(=C/c2ccc3c(c2)OC(F)(F)O3)S1 | 92.5% |
| NC(=O)c1cccc(-c2cc(Nc3ccc(OC(F)(F)F)cc3)ncn2)c1 | 96.6% |
| Clc1ccc(Nc2nnc(Cc3ccncc3)c3ccccc23)cc1 | 98.7% |
| CC(C)N(CCC(=O)c1ccc2ccccc2c1)Cc1ccccc1 | 94.8% |

Some of these lines once more (series 2):
| SMILES | inhibition [%] |
| --- | --- |
| C/C1=C\C(=O)c2c(C)coc2C/C(C)=C/CC1 | 13 |
| CON(C)Cc1ccc(O)c2c1C[C@H]1C[C@H]3[C@H](N(C)C)C(O)=C(C(N)=O)C(=O)[C@@]3(O)C(O)=C1C2=O | -2 |
| C=C1C(=O)O[C@@H]2/C=C(/C)[C@@H](OC(C)=O)C/C=C(/C=O)C[C@@H](OC(=O)/C(C)=C/CO)[C@@H]12 | 0 |
| CCc1c(Cl)c(O)c(Cl)c(O)c1C(=O)O[C@H]1[C@H](O)[C@H](OC)[C@H](OC/C2=C\C=C\C[C@H](O)/C(C)=C/[C@H](CC)[C@@H](O[C@@H]3OC(C)(C)[C@@H](OC(=O)C(C)C)[C@H](O)[C@@H]3O)/C(C)=C/C(C)=C/C[C@@H]([C@@H](C)O)OC2=O)O[C@@H]1C | -11 |
| O=c1cc(-c2ccc(O)cc2)oc2c([C@@H]3O[C@H](CO)[C@@H](O)[C@H](O)[C@H]3O)c(O)cc(O)c12 | 0 |
